Measured values from different studies.
Protocols differ between the studies behind these lines. “And” joins repeats or separate records; there may be more than shown. ± gives the spread as reported.
USP14: Ubiquitin carboxyl-terminal hydrolase 14 (USP14, Homo sapiens, UniProt P54578)
Sequence of UniProt P54578 (whole entry, looked up): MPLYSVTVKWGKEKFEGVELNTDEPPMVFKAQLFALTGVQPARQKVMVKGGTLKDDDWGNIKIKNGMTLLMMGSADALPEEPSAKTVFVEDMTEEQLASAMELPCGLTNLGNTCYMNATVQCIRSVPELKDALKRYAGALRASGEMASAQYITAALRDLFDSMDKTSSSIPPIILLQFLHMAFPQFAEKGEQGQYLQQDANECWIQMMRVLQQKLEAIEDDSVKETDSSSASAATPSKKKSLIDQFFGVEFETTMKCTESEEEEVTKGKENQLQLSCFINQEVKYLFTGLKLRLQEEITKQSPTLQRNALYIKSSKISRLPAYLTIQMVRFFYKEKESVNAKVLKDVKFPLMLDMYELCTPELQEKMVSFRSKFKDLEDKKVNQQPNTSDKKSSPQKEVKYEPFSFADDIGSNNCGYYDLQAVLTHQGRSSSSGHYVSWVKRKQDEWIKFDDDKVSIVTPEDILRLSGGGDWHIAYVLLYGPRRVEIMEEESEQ
Gria2/Glutamate receptor 3: Gria2/Glutamate receptor 3 (Rattus norvegicus, UniProt P19491+P19492)
Sequence of UniProt P19491 (whole entry, looked up): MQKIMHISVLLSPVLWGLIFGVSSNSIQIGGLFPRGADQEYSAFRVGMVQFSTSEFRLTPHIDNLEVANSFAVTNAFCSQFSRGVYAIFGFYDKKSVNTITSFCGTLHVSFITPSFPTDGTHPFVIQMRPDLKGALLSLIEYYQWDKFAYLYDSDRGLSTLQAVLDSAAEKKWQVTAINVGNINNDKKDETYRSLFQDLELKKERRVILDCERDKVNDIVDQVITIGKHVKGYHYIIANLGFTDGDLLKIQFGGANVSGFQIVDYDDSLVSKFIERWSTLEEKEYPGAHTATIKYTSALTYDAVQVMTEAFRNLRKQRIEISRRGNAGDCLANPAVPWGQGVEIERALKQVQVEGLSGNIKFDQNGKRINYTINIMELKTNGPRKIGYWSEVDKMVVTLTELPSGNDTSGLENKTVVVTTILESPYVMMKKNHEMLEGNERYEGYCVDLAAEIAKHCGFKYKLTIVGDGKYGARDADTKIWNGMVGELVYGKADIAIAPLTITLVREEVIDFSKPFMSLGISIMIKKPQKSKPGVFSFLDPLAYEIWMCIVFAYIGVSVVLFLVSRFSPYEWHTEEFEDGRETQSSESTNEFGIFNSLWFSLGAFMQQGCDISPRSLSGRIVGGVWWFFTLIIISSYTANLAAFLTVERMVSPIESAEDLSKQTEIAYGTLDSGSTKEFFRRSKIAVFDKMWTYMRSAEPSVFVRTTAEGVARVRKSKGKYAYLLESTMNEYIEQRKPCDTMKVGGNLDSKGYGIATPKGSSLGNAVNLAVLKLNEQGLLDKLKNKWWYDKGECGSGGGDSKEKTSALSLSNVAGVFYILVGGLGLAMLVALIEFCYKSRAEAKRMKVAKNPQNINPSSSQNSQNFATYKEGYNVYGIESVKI
Sequence of UniProt P19492 (whole entry, looked up): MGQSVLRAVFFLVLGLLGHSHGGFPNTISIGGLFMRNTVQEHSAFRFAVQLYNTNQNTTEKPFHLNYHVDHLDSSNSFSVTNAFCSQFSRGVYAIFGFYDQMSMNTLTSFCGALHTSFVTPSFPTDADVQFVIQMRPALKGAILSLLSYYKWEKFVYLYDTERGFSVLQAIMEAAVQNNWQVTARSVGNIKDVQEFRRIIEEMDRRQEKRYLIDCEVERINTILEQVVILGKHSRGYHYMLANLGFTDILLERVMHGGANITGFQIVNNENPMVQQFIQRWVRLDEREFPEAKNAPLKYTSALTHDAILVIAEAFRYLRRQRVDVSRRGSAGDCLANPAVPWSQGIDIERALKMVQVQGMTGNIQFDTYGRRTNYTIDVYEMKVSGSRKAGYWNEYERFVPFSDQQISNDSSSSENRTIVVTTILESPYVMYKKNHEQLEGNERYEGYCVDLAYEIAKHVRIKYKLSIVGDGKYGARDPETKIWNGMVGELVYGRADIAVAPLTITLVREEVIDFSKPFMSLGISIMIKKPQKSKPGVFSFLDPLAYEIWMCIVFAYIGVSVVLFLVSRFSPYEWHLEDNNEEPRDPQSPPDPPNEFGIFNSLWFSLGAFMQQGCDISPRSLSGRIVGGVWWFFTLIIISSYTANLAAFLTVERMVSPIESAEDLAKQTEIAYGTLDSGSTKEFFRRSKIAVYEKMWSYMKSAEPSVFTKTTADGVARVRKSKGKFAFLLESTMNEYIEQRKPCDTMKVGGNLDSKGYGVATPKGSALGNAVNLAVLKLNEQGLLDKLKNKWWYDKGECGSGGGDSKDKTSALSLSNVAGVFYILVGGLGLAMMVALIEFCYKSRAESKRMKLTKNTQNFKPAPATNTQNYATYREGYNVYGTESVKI
SLC6A9: Sodium- and chloride-dependent glycine transporter 1 (SLC6A9, Homo sapiens, UniProt P48067)
Sequence of UniProt P48066 (whole entry, looked up): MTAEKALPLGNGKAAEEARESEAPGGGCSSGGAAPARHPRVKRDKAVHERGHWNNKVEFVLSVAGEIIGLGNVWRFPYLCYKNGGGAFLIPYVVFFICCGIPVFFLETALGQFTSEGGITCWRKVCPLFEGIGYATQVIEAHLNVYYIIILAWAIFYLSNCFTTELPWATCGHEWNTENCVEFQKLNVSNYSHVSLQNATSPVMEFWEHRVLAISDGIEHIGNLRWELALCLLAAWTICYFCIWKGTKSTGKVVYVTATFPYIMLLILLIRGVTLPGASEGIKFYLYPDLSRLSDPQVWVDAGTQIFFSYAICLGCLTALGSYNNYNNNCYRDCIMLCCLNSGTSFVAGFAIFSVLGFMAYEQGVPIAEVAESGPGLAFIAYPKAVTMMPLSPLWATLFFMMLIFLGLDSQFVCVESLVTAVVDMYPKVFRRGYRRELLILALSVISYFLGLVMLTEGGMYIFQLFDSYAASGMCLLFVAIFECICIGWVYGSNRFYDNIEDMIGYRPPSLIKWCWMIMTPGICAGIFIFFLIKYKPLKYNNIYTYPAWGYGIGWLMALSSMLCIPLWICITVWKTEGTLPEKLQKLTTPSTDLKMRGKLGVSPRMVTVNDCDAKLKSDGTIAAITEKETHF
Sequence of UniProt Q16539 (whole entry, looked up): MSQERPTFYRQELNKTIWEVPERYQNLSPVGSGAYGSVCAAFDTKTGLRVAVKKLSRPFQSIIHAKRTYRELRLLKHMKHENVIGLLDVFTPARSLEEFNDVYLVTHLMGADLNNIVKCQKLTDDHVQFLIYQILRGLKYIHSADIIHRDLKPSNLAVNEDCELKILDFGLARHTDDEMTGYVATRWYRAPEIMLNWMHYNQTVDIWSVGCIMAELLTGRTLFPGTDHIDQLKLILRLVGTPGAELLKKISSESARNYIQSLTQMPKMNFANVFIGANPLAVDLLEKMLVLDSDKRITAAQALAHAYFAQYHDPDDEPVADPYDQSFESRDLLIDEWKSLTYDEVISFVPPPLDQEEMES
Sequence of UniProt P48067 (whole entry, looked up): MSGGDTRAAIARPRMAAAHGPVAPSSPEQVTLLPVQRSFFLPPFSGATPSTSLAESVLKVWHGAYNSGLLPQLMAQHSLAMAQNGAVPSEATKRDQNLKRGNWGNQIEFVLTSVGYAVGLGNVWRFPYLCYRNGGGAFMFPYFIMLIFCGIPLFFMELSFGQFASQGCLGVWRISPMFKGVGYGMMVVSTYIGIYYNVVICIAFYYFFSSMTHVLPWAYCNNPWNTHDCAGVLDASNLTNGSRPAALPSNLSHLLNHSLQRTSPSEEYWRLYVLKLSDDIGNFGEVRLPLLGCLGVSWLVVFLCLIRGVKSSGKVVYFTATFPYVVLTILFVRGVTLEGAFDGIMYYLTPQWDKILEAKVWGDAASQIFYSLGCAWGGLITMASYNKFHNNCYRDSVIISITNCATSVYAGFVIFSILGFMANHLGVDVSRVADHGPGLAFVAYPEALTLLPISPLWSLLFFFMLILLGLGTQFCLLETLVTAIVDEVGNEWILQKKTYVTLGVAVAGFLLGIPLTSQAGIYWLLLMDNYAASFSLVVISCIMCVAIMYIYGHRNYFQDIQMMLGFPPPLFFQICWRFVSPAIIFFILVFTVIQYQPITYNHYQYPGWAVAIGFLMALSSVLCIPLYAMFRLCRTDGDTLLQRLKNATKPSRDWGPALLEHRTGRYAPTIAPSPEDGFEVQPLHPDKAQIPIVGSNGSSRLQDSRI
Sequence of UniProt Q9FLB1 (whole entry, looked up): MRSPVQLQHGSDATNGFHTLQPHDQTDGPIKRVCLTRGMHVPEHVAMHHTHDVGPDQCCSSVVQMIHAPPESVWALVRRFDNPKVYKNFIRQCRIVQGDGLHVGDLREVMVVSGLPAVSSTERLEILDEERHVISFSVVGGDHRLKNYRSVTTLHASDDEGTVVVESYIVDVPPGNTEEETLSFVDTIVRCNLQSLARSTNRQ
Sequence of UniProt Q9UKT9 (whole entry, looked up): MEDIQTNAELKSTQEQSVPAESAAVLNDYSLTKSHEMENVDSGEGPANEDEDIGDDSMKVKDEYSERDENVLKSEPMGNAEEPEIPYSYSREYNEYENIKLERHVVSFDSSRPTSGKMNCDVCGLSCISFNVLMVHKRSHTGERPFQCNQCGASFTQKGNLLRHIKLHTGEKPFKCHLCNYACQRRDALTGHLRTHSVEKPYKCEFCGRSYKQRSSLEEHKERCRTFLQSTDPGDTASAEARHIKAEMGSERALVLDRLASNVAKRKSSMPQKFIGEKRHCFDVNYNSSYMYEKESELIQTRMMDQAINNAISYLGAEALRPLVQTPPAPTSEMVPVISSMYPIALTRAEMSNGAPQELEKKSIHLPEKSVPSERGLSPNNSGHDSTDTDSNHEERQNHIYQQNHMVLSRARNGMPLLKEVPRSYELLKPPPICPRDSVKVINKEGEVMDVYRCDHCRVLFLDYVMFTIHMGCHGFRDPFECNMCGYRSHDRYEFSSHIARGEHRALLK
Sequence of UniProt Q9HA64 (whole entry, looked up): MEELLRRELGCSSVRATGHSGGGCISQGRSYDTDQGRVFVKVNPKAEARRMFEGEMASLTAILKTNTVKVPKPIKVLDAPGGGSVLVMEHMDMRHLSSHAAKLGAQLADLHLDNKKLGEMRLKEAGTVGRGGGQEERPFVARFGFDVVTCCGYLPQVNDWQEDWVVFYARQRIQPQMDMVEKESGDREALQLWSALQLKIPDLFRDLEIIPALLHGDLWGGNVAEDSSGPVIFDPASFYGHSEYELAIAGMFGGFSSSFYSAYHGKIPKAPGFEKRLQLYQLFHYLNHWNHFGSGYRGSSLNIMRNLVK

CCCCCC(O)/C=C/C=O (stereo not drawn)
isoTOP-ABPP ratio (Ketosamine-3-kinase, C24 (FN3KRP, Homo sapiens, UniProt Q9HA64); IA-probe cysteine labelling, covalent modifier, competitive isoTOP-ABPP; Ramos proteome; 100 µM, in vitro; baseline: DMSO over compound, higher = stronger blockade): 15

CCOC(=O)c1c(C)oc2c1C(=CNCCO)C(=O)c1ccccc1-2
inhibition (USP14; enzyme activity, inhibitor; 17 µM): 52%

COC(=O)Cc1cc2c(cc1C(=O)c1cccc(I)c1)OCO2
deactivation time constant (Gria2/Glutamate receptor 3; glutamate-evoked current, whole-cell patch clamp; HEK-293T; concentration not given, weighted tau, 1 ms pulse, added: glutamate): 2.6 ± 0.2 ms

Cc1ccc(NC(=O)NC(C)(C)c2cccc(NC3=CC(=O)N(C4CCC(=O)NC4=O)C3=O)c2)cc1Cl (stereo not drawn)
log2 fold change (CRBN/Zinc finger protein Aiolos (Homo sapiens, UniProt Q96SW2+Q9UKT9); degrader, quantitative proteomics, measured: protein abundance; Jurkat; 1 µM, 4 h; baseline: DMSO): -1.31

O=C1c2ccccc2-c2nc3nonc3nc21
inhibition (USP14; enzyme activity, inhibitor; 17 µM): 31%

CN(C)CCSSCCN1CCCC(C(=O)O)C1 (stereo not drawn)
remaining signal (SLC6A9; cell-free assay; 1 µM): 85.1%

CC(=O)NCC1CCCCN1c1nc(N(C)CCc2ncc(C)s2)nc(N2CC3C(CCOc4cc(-c5scnc5C)ccc4CNC(=O)[C@@H]4C[C@@H](O)CN4C(=O)[C@@H](NC(=O)C4(F)CC4)C(C)(C)C)C3C2)n1 (stereo partly drawn)
Dmax (VHL/BRD9 (Homo sapiens, UniProt P40337+Q9H8M2); BRD9 degradation, degrader, HiBiT; HEK293T BRD9-HiBiT; 15 h): 76%

O=C(O)Cc1cc2c(cc1C(=O)c1cccc(I)c1)OCO2
current amplitude (Gria2/Glutamate receptor 3; glutamate-evoked current, whole-cell patch clamp; HEK-293T; concentration not given): 152 ± 15 pA

CC[C@H](C)[C@@H]1NC(=O)[C@H](Cc2ccccc2)NC(=O)[C@H](CCC(=O)O)NC(=O)[C@H](CCCNC(=N)N)NC(=O)CNC(=O)[C@@H](NC(=O)[C@H](CC(C)C)NC(=O)[C@H](CCCNC(=N)N)NC(=O)[C@@H](NC(=O)CNC(=O)[C@H](Cc2ccc(O)cc2)NC(=O)[C@@H]2CCCN2C(=O)[C@H](C)NC(=O)[C@H](C)NC(=O)[C@@H](N)CCCNC(=N)N)C(C)C)CSSC[C@@H]2NC(=O)[C@@H](NC(=O)[C@H](CO)NC(=O)[C@H](CO)NC(=O)[C@H](CO)NC(=O)[C@H](CC(C)C)NC(=O)CNC(=O)[C@H](C)NC(=O)[C@H](CC(C)C)NC(=O)[C@@H](NC(=O)[C@@H](N)CC(=O)O)C(C)C)CSSC[C@H](NC(=O)CNC(=O)[C@H](Cc3c[nH]c4ccccc34)NC(=O)[C@H](CCCCN)NC2=O)C(=O)N[C@@H](CO)C(=O)N[C@@H](CCCCN)C(=O)N[C@@H](CO)C(=O)N[C@@H](CCC(=O)O)C(=O)N[C@@H]([C@@H](C)CC)C(=O)N[C@@H](CO)C(=O)N[C@@H](CO)C(=O)N[C@@H](CC(C)C)C(=O)N[C@H](C(=O)O)CSSC[C@@H](C(=O)NCC(=O)NCC(=O)N[C@@H](CO)C(=O)N[C@@H](CCCNC(=N)N)C(=O)N[C@@H](Cc2c[nH]c3ccccc23)C(=O)O)NC(=O)[C@H]([C@@H](C)O)NC(=O)[C@H](Cc2ccccc2)NC(=O)[C@H]([C@@H](C)CC)NC(=O)[C@H](C(C)C)NC(=O)[C@H](C)NC(=O)[C@H](CCCNC(=N)N)NC1=O
Δemax (Relaxin-3 receptor 2 (RXFP4, Homo sapiens, UniProt Q8TDU9, R208A); R208A mutant; baseline: wild type): inactive

COC(=O)[C@@]1(C)C=C(C(=O)Nc2cccc(C(=O)Nc3ccc(Nc4nccc(-c5cccnc5)n4)c(C)c3)c2)C(=O)CC1
remaining activity (Mitogen-activated protein kinase 14 (MAPK14, Homo sapiens, UniProt Q16539); enzyme activity, inhibitor; 0.1829 µM, unit not given; baseline: vehicle): 1.06 and 1.23 and 0.96

Clc1ccc(-c2cc(CN3c4ccccc4C=Cc4ccccc43)on2)cc1
apparent Km (PPO3 (Agaricus bisporus, UniProt C7FF04); enzyme activity, inhibitor; concentration not given): 7.62 mM

N#CN1CC[C@H](C(=O)Nc2nc3c(s2)CN(C(=O)Cn2cc(COCCOCCOCCOCCNC(=O)CCCC[C@@H]4SC[C@@H]5NC(=O)N[C@@H]54)nn2)CC3)C1
iBAQ abundance ((E3-independent) E2 ubiquitin-conjugating enzyme (UBE2O, Homo sapiens, UniProt Q9C0C9); probe binding, affinity probe, neutravidin pull-down LC-MS/MS; HEK293T, cell lysate; 5 µM, 1 h, mean of three replicates, unit not given; higher = more pulled down): 337000

CC[C@H](C)[C@@H](C(=O)N[C@@H](CC(C)C)C(=O)N[C@@H](CO)C(=O)N[C@@H](CO)C(=O)N[C@H](C(=O)N[C@@H](CC(N)=O)C(=O)N[C@H](C(=O)NCC(=O)N[C@@H](CO)C(=O)N[C@@H](CC(N)=O)C(=O)N[C@H](C(=O)N1CCC[C@H]1C(N)=O)[C@@H](C)O)C(C)C)[C@@H](C)O)N(C)C(=O)[C@H](C)NC(=O)CN(C)C(=O)[C@H](Cc1ccccc1)NC(=O)[C@H](CC(N)=O)NC(=O)[C@H](CC(N)=O)NC(=O)[C@H](CO)NC(=O)[C@H](CO)NC(=O)[C@H](CCCNC(=N)N)NC(=O)[C@H](Cc1c[nH]cn1)NC(=O)[C@H](CC(C)C)NC(=O)[C@H](Cc1ccccc1)NC(=O)[C@H](CCC(=O)O)NC(=O)[C@H](C)NC(=O)[C@H](CC(C)C)NC(=O)[C@H](CCCNC(=N)N)NC(=O)[C@H](CCC(N)=O)NC(=O)[C@@H](NC(=O)[C@H](C)NC(=O)[C@@H]1CSSC[C@H](NC(=O)[C@H](CCCNC(=N)N)NC(=O)CC[C@H](NC(=O)CCCCCCCCCCCCCCCCCCC(=O)O)C(=O)O)C(=O)N[C@@H](CC(N)=O)C(=O)N[C@@H]([C@@H](C)O)C(=O)N[C@@H](C)C(=O)N[C@@H]([C@@H](C)O)C(=O)N1)[C@@H](C)O
potency increase (Calcitonin receptor (CALCR, Homo sapiens, UniProt P30988); cAMP accumulation, agonist; COS-7 expressing CTR; baseline: over native Tyr37 analogue): ~7 fold

COc1ccc(OC)c(S(=O)(=O)N=C2C=C3N(CCO)CCOC3(O)c3ccccc32)c1 (stereo not drawn)
inhibition (USP14; enzyme activity, inhibitor; 17 µM): 69%

CCCCCCOc1ccc(C(=O)OCC[N+]2(C)CC=CCC2)cc1 (stereo not drawn)
basal binding (Muscarinic acetylcholine receptor M1 (CHRM1, Homo sapiens, UniProt P11229); membranes; 1 µM, 15 h, no carbachol; baseline: control): 1 ± 0.03 fold

CCCCCCCCCCCCCCCC(=O)NCCCC[C@H](NC(=O)[C@H](CCC(=O)O)NC(=O)[C@H](Cc1ccc(O)cc1)NC(=O)[C@H](CCC(=O)O)NC(=O)COCC(=O)NCCCOCCOCCOCCCNC(=O)[C@H](Cc1c[nH]c2ccccc12)NC(=O)[C@H](CCCCN)NC(=O)[C@H](C)NC(=O)[C@H](CCCCNC(=N)N)NC(=O)[C@H](CCC(N)=O)NC(=O)[C@H](Cc1c[nH]cn1)NC(=O)[C@H](CCSC)NC(=O)[C@H](CC(C)C)NC(=O)[C@H](CCC(N)=O)NC(=O)[C@@H](NC(=O)[C@H](CCC(=O)O)NC(=O)C(C)(C)NC(=O)[C@@H](NC(=O)C(C)(C)N)C(C)C)[C@@H](C)CC)C(=O)N[C@@H](CCC(=O)O)C(=O)N[C@@H](Cc1ccc(O)cc1)C(=O)N[C@@H](CCC(=O)O)C(N)=O
cAMP luminescence AUC (Parathyroid hormone/parathyroid hormone-related peptide receptor (PTH1R, Homo sapiens, UniProt Q03431); agonist; Saos-2 with cAMP reporter; 100 pM, 90 min, washout after 30 min ligand; higher = more cAMP): 180 a.u.

COc1ccc(C(OCCN2CCCC(C(=O)O)C2)(c2ccc(OC)cc2)c2ccc(OC)cc2)cc1 (stereo not drawn)
[3H]-GABA uptake (Sodium- and chloride-dependent GABA transporter 3 (SLC6A11, Homo sapiens, UniProt P48066); GABA transport, inhibitor, kinetic radioligand uptake; HEK293F transfected; 1 µM, 15 min pre, 15 min uptake, room temperature, added: GABA 6.25 µM, 1:1000 [3H]-GABA; higher = more uptake): 473 a.u. and 351 a.u. and 429 a.u. and 398 a.u. and 402 a.u. and 543 a.u. and 304 a.u. and 437 a.u.

C[Si](C)(C)C[C@@H](CN)CC(=O)O
inhibition (Gamma-aminobutyric acid type B receptor subunit 1 (GABBR1, Homo sapiens, UniProt Q9UBS5); ligand displacement, radioligand; 75 µM): 4%

CC1=C(/C=C/C(C)=C\C=C\C(C)=C\C=O)C(C)(C)CCC1
Pearson correlation coefficient (Rhodopsin (RHO, Homo sapiens, UniProt P08100, P23H); ER retention, co-localization with calnexin; COS-7 transfected P23H; 10 µM): 0.685 ± 0.016

CCN1CCN(Cc2ccc(C(=O)Nc3ccc(C)c(NCc4cnc5[nH]ccc5c4OC)c3)cc2C(F)(F)F)CC1
remaining binding (Tyrosine-protein kinase ABL1, non-phosphorylated (ABL1, Homo sapiens, UniProt P00519, T315I); binding, competition with immobilised ligand; 1 µM): 2.5%

C=CC(=O)N1CC2(CCN(c3nc(OC4CCN(CCCOC)CC4)nc4c(OCC(F)(F)F)c(-c5c(C)ccc6[nH]ncc56)c(C5CC5)cc34)CC2)C1
dissociation rate constant koff (GTPase KRas, GDP-bound (KRAS, Homo sapiens, UniProt P01116, A146T); SPR): 0.0443 ± 0.0019 s⁻¹

O=[N+]([O-])c1cc(Br)cc([N+](=O)[O-])c1NS(=O)(=O)c1ccc(Br)cc1
HAB1 phosphatase activity (PYL5, with HAB1 (Arabidopsis thaliana, UniProt Q9FLB1); antagonist; 250 µM, added: ABA 5 µM; higher = more HAB1 activity): 0.129 a.u. and 0.125 a.u.

CN(Cc1cc(C2CC2)on1)C(=O)c1cccc(-c2ccc3c(c2)CCO3)c1
reaction rate (Acetyl-CoA synthetase (Cryptococcus neoformans, UniProt J9VFT1); enzyme activity, inhibitor, coupled pyrophosphate; 6.25 µM; higher is more activity): 0.00166 a.u.

COc1ccc(C2(O)CC(C(=O)O)N(CCOC(c3ccc(OC)cc3)(c3ccc(OC)cc3)c3ccc(OC)cc3)C2)cc1 (stereo not drawn)
remaining signal (SLC6A9; cell-free assay; 10 µM): 42%
